Published values from different studies.
Each line is one published result; not all experiments were run side by side. “And” joins repeats or separate records; there may be more than shown. ± gives the spread as reported.
rep nsp3 macrodomain: Replicase polyprotein 1ab, nsp3 macrodomain (rep, Severe acute respiratory syndrome coronavirus 2, UniProt P0DTD1)
rep main protease: Replicase polyprotein 1ab, main protease (rep, Severe acute respiratory syndrome coronavirus 2, UniProt P0DTD1)
rep papain-like protease: Replicase polyprotein 1ab, papain-like protease (rep, Severe acute respiratory syndrome coronavirus 2, UniProt P0DTD1)
rep nsp14 methyltransferase: Replicase polyprotein 1ab, nsp14 methyltransferase (rep, Severe acute respiratory syndrome coronavirus 2, UniProt P0DTD1)

SMILES	target	test	system	conditions	how to read	measurement	result
O=C(c1ccc(Br)cc1)N1CCC(c2ccn3ncc(C(=O)N4CCCCC4)c3c2)CC1	rep nsp3 macrodomain	thermal stabilisation, differential scanning fluorimetry	–	150 µM, SARS-CoV-2	–	ΔTm	0.47 ± 0.04 °C
CNC(=O)C[C@H](Cc1ccncc1)NC(=O)[C@@H](Cc1cccc(Br)c1)NC(=O)[C@@H](N)Cc1cccc(F)c1	rep main protease	–	–	0.5229 µM	–	remaining activity	72.6%
Cc1cccc(Cl)c1-n1sc(=O)n(CC2CC2)c1=O	rep nsp3 macrodomain	thermal stabilisation, differential scanning fluorimetry	–	300 µM, SARS-CoV-2	–	ΔTm	-18.9 ± 0.53 °C
O=c1c2cccc([N+](=O)[O-])c2[se]n1-c1ccccc1	rep main protease	FRET	SARS-CoV-2	main protease	–	Hill coefficient	2.2 ± 0.1
O=C(O)C[C@H](NC(=O)c1ccccc1[Se][Se]c1ccccc1C(=O)N[C@@H](CC(=O)O)C(=O)O)C(=O)O	rep main protease	enzyme activity, inhibitor	–	40 µM, mean of repeats	–	inhibition	98.1%
CNC(=O)CC1CN(C(=O)c2ccc(C(F)(F)F)cn2)CCN1C(=O)c1cccnn1 (centres unmarked)	rep main protease	3CL protease activity	–	1 µM	–	remaining activity	98.5%
C[C@](C(=O)NC1CCC(F)(F)CC1)(c1cncnc1)N(C(=O)[C@H](F)Cl)c1ccc(OC(F)(F)F)cc1	rep main protease	enzyme activity	–	25 µM	–	inhibition	99.7% and 98.2%
COc1ccc(-c2cc(=O)c3c(O)cc(O)c(-c4cc(-c5cc(=O)c6c(O)cc(OC)cc6o5)ccc4OC)c3o2)cc1	rep main protease	enzyme activity, inhibitor	–	with preincubation	–	kinact	0.000167 s⁻¹
CC(=O)N[C@@H](Cc1ccc(O)cc1)C(=O)N[C@@H](CC(=O)O)C(=O)NCCC(=O)N[C@@H](Cc1ccccc1)C(=O)N[C@@H](Cc1ccc(O)cc1)C(=O)NCCC(=O)N[C@@H](Cc1ccc(O)cc1)C(=O)N[C@H](C(=O)N[C@H](C(=O)N[C@@H](Cc1ccccc1)C(=O)N[C@@H](Cc1c[nH]cn1)C(=O)N[C@H](C(=O)N[C@@H](C)C(=O)N[C@H](C(N)=O)[C@@H](C)O)C(C)C)[C@@H](C)O)C(C)C	rep main protease	binding, SPR	–	–	–	koff	0.00379 s⁻¹
COc1cc2c(cc1OC)-c1c(OC)c(OC)cc3c1[C@H](C2)N(C)CC3	rep main protease	STD NMR, item: proton H3–14	–	–	baseline: H-8 signal	relative STD saturation	38%
COC(=O)Cn1[se]c2ccccc2c1=O	rep main protease	enzyme activity, inhibitor	–	40 µM	–	inhibition	103%
Cc1ccc(O[C@H]2CCN(C)C2)cc1C(=O)N[C@H](C)c1cc(-c2cnn(C)c2)nc2ccccc12	rep papain-like protease	reporter gene, cell-based	–	–	–	GFP/mCherry signal ratio	27.5 and 7.61 and 54.5 and 2.7 and 1.51 and 14.3
CC(=O)Nc1ccc(-c2cnc(N3C(=O)C(Cl)C3c3cc4ccccc4nc3Cl)s2)cc1 (centres unmarked)	rep main protease	thermal stability	–	100 µM	–	ΔTm	-3 °C
[N-]=[N+]=N[C@]1(COP(=O)(O)OP(=O)(O)OP(=O)(O)O)O[C@@H](n2ccc(N)nc2=O)[C@@H](F)[C@@H]1O	Replicase polyprotein 1ab, nsp12 RdRp (rep, Severe acute respiratory syndrome coronavirus 2, UniProt P0DTD1)	nucleotide incorporation, substrate	–	–	–	Vmax	0.94 fraction per time
Cc1ccc(OCCN(C)C)cc1C(=O)N[C@H](C)c1cc(-c2cnn(C3CNC3)c2)nc2ccccc12	rep papain-like protease	reporter gene, cell-based	–	–	–	GFP/mCherry signal ratio	109 and 96.5 and 101 and 111 and 82 and 107
C#Cc1cccc(CCNC(=O)[C@@H](c2cncnc2)N(C(=O)[C@H](F)Cl)c2ccc(S(F)(F)(F)(F)F)cc2)c1	rep main protease	protease labelling, in-gel fluorescence	–	lowest Mpro concentration detected	–	detection limit	10 nM
CNC(=O)CC[C@H](Cc1ccccc1)NC(=O)[C@@H](Cc1ccc(Cl)cc1Cl)NC(=O)[C@H](N)Cc1ccccc1[N+](=O)[O-]	rep main protease	3CL protease activity	–	1 µM	–	remaining activity	66.6%
CCn1ccc(-c2cc(C(C)NC(=O)c3cc(N4CC5CC4CN5C)ccc3C)c3ccccc3n2)n1 (centres unmarked)	rep papain-like protease	reporter gene, cell-based	–	–	–	GFP/mCherry signal ratio	80.8 and 86.5 and 96.3 and 4.68 and 41.8 and 70
c1ccc([Se][Se]c2ccccc2)cc1	rep main protease	enzyme activity, inhibitor	–	40 µM, mean of repeats	–	inhibition	104%

SMILES	target	test	system	conditions	how to read	measurement	result
O=C(OCC(=O)c1ccc([N+](=O)[O-])cc1)/C(=C/c1ccc(Cl)cc1)NC(=O)c1ccccc1	rep main protease	enzyme activity, inhibitor	–	1.5 µM	–	Vmax	24.3 ± 2.7 RFU/s
CCOc1ccc(CN2CC[C@H]2C(=O)NC)cc1-c1cccc(C(=O)NC[C@@H]2COC(C)(C)O2)c1	rep main protease	–	–	0.0001693 µM	–	remaining activity	89.6%
CCc1n[nH]c(NC(=O)c2ccc3c(c2)nnn3C)n1	rep main protease	protease activity, SAMDI-MS	–	–	–	Hill slope	1.48
CC(C)CC(C(=O)N1CC2(CC1C#N)C(=O)Nc1ccccc12)N(C)C(=O)c1cc2c(F)cc(F)c(F)c2[nH]1 (centres unmarked)	rep main protease	enzyme activity	–	concentration not given	–	remaining activity	0.18%
CN=c1nc(-c2ccccc2)n(-c2ccccc2)s1	Replicase polyprotein 1ab, nsp14 N7-methyltransferase (rep, Severe acute respiratory syndrome coronavirus 2, UniProt P0DTD1)	N7-methyltransferase activity, inhibitor, Py-FLINT	–	–	–	Hill slope	1.97 ± 0.39
CC(=O)NS(=O)(=O)c1ccc(C2=NN(c3ccc(C#N)c(Cl)c3)C(C)C2)cc1 (centres unmarked)	rep nsp14 methyltransferase	–	–	–	–	lipophilic ligand efficiency	2.4
COc1cccc2[nH]c(C(=O)N[C@@H](CC(C)C)C(=O)N[C@H](C#N)C[C@@H]3CCNC3=O)cc12	rep main protease	enzyme activity, inhibitor	–	concentration not given	–	reactivation half-life	4 h
C=CCn1c(C)cc(C(=O)COn2nnc3ccc(S(=O)(=O)N(C)C)cc32)c1C	rep main protease	protease activity, SAMDI-MS	–	–	–	Hill slope	1.65
CNC(=O)C[C@H](Cc1ccncc1)NC(=O)[C@@H](Cc1cccc(Br)c1)NC(=O)[C@@H](N)Cc1ccsc1	rep main protease	–	–	0.0001693 µM	–	remaining activity	87.8%
O=C(NCCc1cccc(F)c1)[C@@H](c1cncnc1)N(C(=O)[C@H](F)Cl)c1ccc(S(F)(F)(F)(F)F)cc1	rep main protease	enzyme activity, inhibitor	–	–	–	kinact/KI	4170 M⁻¹ s⁻¹
CC(=O)N[C@H](Cc1ccc(O)cc1)C(=O)N[C@@H](CCCNC(=N)N)C(=O)N[C@@H](Cc1ccccc1)C(=O)N[C@H]1CCC[C@@H]1C(=O)N[C@@H](CCCNC(=N)N)C(=O)N[C@@H](CC(N)=O)C(=O)N[C@H]1CCC[C@@H]1C(=O)N[C@H](C(=O)N[C@@H](Cc1ccccc1)C(=O)N[C@H]1CCC[C@@H]1C(=O)N[C@@H](Cc1ccccc1)C(=O)N[C@@H](Cc1ccc(O)cc1)C(=O)N[C@H]1CCC[C@@H]1C(=O)N[C@H](C(=O)N[C@@H](CC(=O)O)C(N)=O)[C@@H](C)O)C(C)C	rep main protease	binding, SPR	–	pH 7.6	–	kon	6.52e+07 M⁻¹ s⁻¹
C[C@](C(=O)NC1CCOCC1)(c1cncnc1)N(C(=O)[C@H](F)Cl)c1ccc(OC(F)(F)Cl)cc1	rep main protease	enzyme activity	–	1.111 µM	–	inhibition	98.9% and 101%
COc1cc(OC)cc(C(=O)N(CCC(=O)N2CCNCC2)Cc2cccc(Cl)c2)c1	rep nsp3 macrodomain	thermal stabilisation, differential scanning fluorimetry	–	300 µM, SARS-CoV-2	–	ΔTm	1.67 ± 0.21 °C
COc1cc(C(=O)O)ccc1C1=NN(c2ccc(C#N)c(Cl)c2)C(C)C1 (centres unmarked)	rep nsp14 methyltransferase	–	–	–	–	lipophilic ligand efficiency	1.2
O=C(CCc1ccccc1)NOC(=O)OCc1ccccc1	rep main protease	thermal shift	–	20 µM, 2 h	–	melting temperature	50.8 °C
C[C@@H]1C[C@H]2[C@@H](C[C@H]1n1[se]c3ccccc3c1=O)C2(C)C	rep main protease	enzyme activity, inhibitor	–	40 µM	–	inhibition	102%
CSCC[C@@H](C=O)NC(=O)[C@H](CC(C)C)NC(=O)[C@H](CC(C)C)NC(C)=O	rep main protease	enzyme activity, inhibitor	–	enzyme 3 nM vs 125 nM	baseline: native 3CLpro over MBP-3CLpro	potency increase	5 to 10 fold
O=C(CCl)N1N=C(c2cccs2)CC1c1cccs1 (centres unmarked)	rep main protease	inhibitor, biochemical	–	–	–	kinact/Ki	777 M⁻¹ s⁻¹
O=c1oc2c(O)c(O)ccc2c2cc(O)c(O)cc12	rep main protease	–	–	–	–	binding efficiency index	27.6

Excerpt of the above:
SMILES	target	test	system	conditions	how to read	measurement	result
COc1cc2c(cc1OC)-c1c(OC)c(OC)cc3c1[C@H](C2)N(C)CC3	rep main protease	STD NMR, item: proton H3–14	–	–	baseline: H-8 signal	relative STD saturation	38%
COC(=O)Cn1[se]c2ccccc2c1=O	rep main protease	enzyme activity, inhibitor	–	40 µM	–	inhibition	103%
Cc1ccc(O[C@H]2CCN(C)C2)cc1C(=O)N[C@H](C)c1cc(-c2cnn(C)c2)nc2ccccc12	rep papain-like protease	reporter gene, cell-based	–	–	–	GFP/mCherry signal ratio	27.5 and 7.61 and 54.5 and 2.7 and 1.51 and 14.3
CC(=O)Nc1ccc(-c2cnc(N3C(=O)C(Cl)C3c3cc4ccccc4nc3Cl)s2)cc1 (centres unmarked)	rep main protease	thermal stability	–	100 µM	–	ΔTm	-3 °C
[N-]=[N+]=N[C@]1(COP(=O)(O)OP(=O)(O)OP(=O)(O)O)O[C@@H](n2ccc(N)nc2=O)[C@@H](F)[C@@H]1O	Replicase polyprotein 1ab, nsp12 RdRp (rep, Severe acute respiratory syndrome coronavirus 2, UniProt P0DTD1)	nucleotide incorporation, substrate	–	–	–	Vmax	0.94 fraction per time
Cc1ccc(OCCN(C)C)cc1C(=O)N[C@H](C)c1cc(-c2cnn(C3CNC3)c2)nc2ccccc12	rep papain-like protease	reporter gene, cell-based	–	–	–	GFP/mCherry signal ratio	109 and 96.5 and 101 and 111 and 82 and 107
